{"data": "Published values from different studies", "note": "Lines come from different studies, so protocols differ."}
{"Compound": "C[C@H](CCCC(C)(C)O)[C@H]1CC[C@H]2[C@@H]3CC=C4C[C@@H](O)CC[C@]4(C)[C@H]3CC[C@]12C", "tested on": "Human rotavirus", "test system": "MA104, DS-1", "endpoint": "EC50", "result": "270 nM"}
{"Compound": "Fc1cc(F)c(-c2c(Cl)nc(-c3cccs3)nc2NCc2cccnc2)c(F)c1", "tested on": "Schistosoma mansoni", "assay": "worm motility", "test system": "adult worms ex vivo", "setting": "24 h", "endpoint": "EC50", "result": "4520 nM"}
{"Compound": "CCOC(=O)C1=C(CN2CCC[C@@H]2C(=O)Nc2ccc(B(O)O)cc2)NC(c2nccs2)=N[C@H]1c1ccc(F)cc1Br", "tested on": "Hepatitis B virus", "assay": "HBV DNA level", "test system": "HepAD38", "setting": "6 days", "endpoint": "EC50", "result": "1 nM"}
{"Compound": "COc1cc2nc(N3CCN(C(=O)C4COc5ccccc5O4)CC3)nc(N)c2cc1OC (stereo not shown)", "tested on": "Nedd8-cullin1 interaction", "assay": "neddylation, AlphaScreen", "setting": "100 µM", "endpoint": "inhibition", "result": "-8.2%"}
{"Compound": "CC1=C(Cc2cn(CCN3CCC(F)(F)CC3)nn2)C(=O)c2ccccc2C1=O", "tested on": "Schistosoma mansoni", "test system": "adult worms", "setting": "10 µM, 72 h", "endpoint": "killing", "result": "44.4%"}
{"Compound": "COC(=O)N[C@H](C(=O)N1CCC[C@H]1c1ncc(-c2ccc(-c3ccc(-c4cnc([C@@H]5CCCN5C(=O)[C@@H](NC(=O)OC)C(C)C)[nH]4)cc3)cc2)[nH]1)C(C)C", "tested on": "human coronavirus", "assay": "viral replication", "test system": "MRC5", "endpoint": "EC50", "result": "> 29000 nM"}
{"Compound": "CC1=C(Cn2cncn2)C(=O)c2ccccc2C1=O", "tested on": "Schistosoma mansoni", "test system": "adult worms", "setting": "25 µM, 48 h", "endpoint": "killing", "result": "45.8%"}
{"Compound": "C[C@@H](CO)CCC[C@@H](C)[C@H]1CC[C@H]2[C@@H]3CC=C4C[C@@H](O)CC[C@]4(C)[C@H]3CC[C@]12C", "tested on": "Human rotavirus", "test system": "Caco-2, DS-1", "endpoint": "EC50", "result": "450 nM"}
{"Compound": "Cc1cc(OC(C)C)ccc1C(=O)C(C)(C)NC(=O)c1sccc1C", "tested on": "Botrytis squamosa", "assay": "mycelial growth", "test system": "PSA medium", "setting": "20 °C, suspension concentrate 400 g/L", "endpoint": "EC50", "result": "0.74 µg/mL"}
{"Compound": "Fc1cc(F)c(-c2c(Cl)nc(-c3cccs3)nc2N2CCCOCC2)c(F)c1", "tested on": "Schistosoma mansoni", "assay": "worm motility", "test system": "adult worms ex vivo", "setting": "24 h", "endpoint": "EC50", "result": "910 nM"}
{"Compound": "CC(COc1ccccc1)NC(C)C(O)c1ccc(O)cc1 (stereo not shown)", "tested on": "Nedd8-cullin1 interaction", "assay": "neddylation, AlphaScreen", "setting": "100 µM", "endpoint": "inhibition", "result": "102%"}
{"Compound": "CCOC(=O)C1=C(CN2CCC[C@@H]2C(=O)Nc2cccc(B(O)O)c2)NC(c2nccs2)=N[C@H]1c1ccc(F)cc1Br", "tested on": "Hepatitis B virus", "assay": "HBV DNA level", "test system": "HepAD38", "setting": "6 days", "endpoint": "EC50", "result": "38 nM"}
{"Compound": "CC(C)(C)CNc1nc(-c2cccs2)nc(Cl)c1-c1c(F)cc([N+](=O)[O-])cc1F", "tested on": "Schistosoma mansoni", "assay": "worm motility", "test system": "adult worms ex vivo", "setting": "24 h", "endpoint": "EC50", "result": "< 300 nM"}
